Published values collected from several papers.
Numbered parts are unrelated; each lists some results of a single study.
Chain of UniProt P08588 (whole entry, looked up): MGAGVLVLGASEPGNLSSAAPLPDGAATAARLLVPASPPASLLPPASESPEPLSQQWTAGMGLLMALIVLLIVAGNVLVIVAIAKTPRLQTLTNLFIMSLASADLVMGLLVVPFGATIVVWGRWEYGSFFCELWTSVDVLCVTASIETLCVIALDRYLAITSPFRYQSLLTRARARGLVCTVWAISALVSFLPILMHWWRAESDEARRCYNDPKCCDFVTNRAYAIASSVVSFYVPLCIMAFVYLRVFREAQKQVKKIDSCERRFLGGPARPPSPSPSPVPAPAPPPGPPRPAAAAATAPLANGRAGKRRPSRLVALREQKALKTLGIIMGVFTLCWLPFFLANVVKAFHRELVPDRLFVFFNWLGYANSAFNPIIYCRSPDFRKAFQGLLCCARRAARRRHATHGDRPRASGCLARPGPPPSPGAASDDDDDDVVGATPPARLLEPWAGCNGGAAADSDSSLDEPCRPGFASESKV
Chain of UniProt Q99720 (whole entry, looked up): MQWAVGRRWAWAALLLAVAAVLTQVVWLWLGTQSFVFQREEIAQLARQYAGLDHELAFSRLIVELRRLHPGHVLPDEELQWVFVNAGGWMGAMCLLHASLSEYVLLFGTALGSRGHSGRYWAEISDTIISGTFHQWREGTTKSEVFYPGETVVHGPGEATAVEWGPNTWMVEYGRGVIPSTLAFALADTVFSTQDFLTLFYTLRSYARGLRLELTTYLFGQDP
Chain of UniProt P18089 (whole entry, looked up): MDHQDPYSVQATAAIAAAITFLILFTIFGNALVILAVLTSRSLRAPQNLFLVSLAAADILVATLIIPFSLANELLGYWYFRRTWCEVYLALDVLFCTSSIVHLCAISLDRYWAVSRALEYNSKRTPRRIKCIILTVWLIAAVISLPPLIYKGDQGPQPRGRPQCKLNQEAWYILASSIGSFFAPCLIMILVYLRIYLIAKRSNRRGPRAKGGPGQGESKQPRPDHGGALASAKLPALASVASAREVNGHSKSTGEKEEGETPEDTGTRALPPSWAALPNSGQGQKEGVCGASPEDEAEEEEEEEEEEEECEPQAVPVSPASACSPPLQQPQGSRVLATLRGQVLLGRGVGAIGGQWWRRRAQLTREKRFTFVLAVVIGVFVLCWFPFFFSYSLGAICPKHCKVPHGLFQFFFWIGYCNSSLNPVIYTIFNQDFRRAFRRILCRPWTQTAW
Chain of UniProt Q9BQI3 (whole entry, looked up): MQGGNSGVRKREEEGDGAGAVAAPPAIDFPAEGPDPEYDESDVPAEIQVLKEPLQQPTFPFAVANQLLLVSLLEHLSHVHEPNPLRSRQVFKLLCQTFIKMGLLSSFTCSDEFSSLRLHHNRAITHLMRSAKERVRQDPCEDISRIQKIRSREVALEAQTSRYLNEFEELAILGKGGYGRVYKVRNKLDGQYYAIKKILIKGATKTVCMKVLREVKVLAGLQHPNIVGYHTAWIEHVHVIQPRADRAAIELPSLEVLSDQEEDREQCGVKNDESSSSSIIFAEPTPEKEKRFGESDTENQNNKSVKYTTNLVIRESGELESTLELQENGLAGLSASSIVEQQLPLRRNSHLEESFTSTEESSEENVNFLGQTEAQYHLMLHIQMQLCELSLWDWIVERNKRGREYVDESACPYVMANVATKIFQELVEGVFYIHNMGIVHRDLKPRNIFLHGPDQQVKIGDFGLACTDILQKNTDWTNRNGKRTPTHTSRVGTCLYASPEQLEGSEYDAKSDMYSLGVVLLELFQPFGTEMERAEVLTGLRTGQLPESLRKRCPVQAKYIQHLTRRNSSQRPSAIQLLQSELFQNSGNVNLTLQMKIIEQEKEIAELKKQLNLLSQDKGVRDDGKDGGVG
Chain of UniProt P50406 (whole entry, looked up): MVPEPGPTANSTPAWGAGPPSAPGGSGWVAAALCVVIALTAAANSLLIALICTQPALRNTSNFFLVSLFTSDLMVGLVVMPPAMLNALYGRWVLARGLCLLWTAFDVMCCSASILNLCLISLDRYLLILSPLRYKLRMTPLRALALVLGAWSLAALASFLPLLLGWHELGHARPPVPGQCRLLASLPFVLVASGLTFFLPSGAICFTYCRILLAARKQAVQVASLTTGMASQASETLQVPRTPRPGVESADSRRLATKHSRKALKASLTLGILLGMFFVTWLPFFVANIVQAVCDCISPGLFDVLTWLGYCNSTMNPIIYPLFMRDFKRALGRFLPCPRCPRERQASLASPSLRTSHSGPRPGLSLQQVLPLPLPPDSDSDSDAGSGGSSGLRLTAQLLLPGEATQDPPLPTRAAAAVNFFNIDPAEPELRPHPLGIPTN

Study 1
SMILES: CC#CC(=O)N1CCC[C@H]1c1nc(-c2ccc(C(=O)Nc3ccccn3)cc2)c2c(N)nccn12
Observed: enzyme activity
Mode: inhibitor
Concentration: 1 µM
target | inhibition [%]
CDPK1 (Plasmodium falciparum, UniProt P62344) | 95
EIF2AK1 (Homo sapiens, UniProt Q9BQI3) | 0
CLK2 (Homo sapiens, UniProt P49760) | 7
PHKG1 (Homo sapiens, UniProt Q16816) | 0
MAP2K2 (Homo sapiens, UniProt P36507) | 8
FGFR1 (Homo sapiens, UniProt P11362) | 32
PIK3C2G (Homo sapiens, UniProt O75747) | 10
SBK1 (Homo sapiens, UniProt Q52WX2) | 9
MAP2K5 (Homo sapiens, UniProt Q13163) | 74
CDC42BPB (Homo sapiens, UniProt Q9Y5S2) | 0

Study 2
Target: DNA polymerase theta, ATPase domain (POLQ, Homo sapiens, UniProt O75417)
Chain of UniProt O75417 (whole entry, unmodified, looked up): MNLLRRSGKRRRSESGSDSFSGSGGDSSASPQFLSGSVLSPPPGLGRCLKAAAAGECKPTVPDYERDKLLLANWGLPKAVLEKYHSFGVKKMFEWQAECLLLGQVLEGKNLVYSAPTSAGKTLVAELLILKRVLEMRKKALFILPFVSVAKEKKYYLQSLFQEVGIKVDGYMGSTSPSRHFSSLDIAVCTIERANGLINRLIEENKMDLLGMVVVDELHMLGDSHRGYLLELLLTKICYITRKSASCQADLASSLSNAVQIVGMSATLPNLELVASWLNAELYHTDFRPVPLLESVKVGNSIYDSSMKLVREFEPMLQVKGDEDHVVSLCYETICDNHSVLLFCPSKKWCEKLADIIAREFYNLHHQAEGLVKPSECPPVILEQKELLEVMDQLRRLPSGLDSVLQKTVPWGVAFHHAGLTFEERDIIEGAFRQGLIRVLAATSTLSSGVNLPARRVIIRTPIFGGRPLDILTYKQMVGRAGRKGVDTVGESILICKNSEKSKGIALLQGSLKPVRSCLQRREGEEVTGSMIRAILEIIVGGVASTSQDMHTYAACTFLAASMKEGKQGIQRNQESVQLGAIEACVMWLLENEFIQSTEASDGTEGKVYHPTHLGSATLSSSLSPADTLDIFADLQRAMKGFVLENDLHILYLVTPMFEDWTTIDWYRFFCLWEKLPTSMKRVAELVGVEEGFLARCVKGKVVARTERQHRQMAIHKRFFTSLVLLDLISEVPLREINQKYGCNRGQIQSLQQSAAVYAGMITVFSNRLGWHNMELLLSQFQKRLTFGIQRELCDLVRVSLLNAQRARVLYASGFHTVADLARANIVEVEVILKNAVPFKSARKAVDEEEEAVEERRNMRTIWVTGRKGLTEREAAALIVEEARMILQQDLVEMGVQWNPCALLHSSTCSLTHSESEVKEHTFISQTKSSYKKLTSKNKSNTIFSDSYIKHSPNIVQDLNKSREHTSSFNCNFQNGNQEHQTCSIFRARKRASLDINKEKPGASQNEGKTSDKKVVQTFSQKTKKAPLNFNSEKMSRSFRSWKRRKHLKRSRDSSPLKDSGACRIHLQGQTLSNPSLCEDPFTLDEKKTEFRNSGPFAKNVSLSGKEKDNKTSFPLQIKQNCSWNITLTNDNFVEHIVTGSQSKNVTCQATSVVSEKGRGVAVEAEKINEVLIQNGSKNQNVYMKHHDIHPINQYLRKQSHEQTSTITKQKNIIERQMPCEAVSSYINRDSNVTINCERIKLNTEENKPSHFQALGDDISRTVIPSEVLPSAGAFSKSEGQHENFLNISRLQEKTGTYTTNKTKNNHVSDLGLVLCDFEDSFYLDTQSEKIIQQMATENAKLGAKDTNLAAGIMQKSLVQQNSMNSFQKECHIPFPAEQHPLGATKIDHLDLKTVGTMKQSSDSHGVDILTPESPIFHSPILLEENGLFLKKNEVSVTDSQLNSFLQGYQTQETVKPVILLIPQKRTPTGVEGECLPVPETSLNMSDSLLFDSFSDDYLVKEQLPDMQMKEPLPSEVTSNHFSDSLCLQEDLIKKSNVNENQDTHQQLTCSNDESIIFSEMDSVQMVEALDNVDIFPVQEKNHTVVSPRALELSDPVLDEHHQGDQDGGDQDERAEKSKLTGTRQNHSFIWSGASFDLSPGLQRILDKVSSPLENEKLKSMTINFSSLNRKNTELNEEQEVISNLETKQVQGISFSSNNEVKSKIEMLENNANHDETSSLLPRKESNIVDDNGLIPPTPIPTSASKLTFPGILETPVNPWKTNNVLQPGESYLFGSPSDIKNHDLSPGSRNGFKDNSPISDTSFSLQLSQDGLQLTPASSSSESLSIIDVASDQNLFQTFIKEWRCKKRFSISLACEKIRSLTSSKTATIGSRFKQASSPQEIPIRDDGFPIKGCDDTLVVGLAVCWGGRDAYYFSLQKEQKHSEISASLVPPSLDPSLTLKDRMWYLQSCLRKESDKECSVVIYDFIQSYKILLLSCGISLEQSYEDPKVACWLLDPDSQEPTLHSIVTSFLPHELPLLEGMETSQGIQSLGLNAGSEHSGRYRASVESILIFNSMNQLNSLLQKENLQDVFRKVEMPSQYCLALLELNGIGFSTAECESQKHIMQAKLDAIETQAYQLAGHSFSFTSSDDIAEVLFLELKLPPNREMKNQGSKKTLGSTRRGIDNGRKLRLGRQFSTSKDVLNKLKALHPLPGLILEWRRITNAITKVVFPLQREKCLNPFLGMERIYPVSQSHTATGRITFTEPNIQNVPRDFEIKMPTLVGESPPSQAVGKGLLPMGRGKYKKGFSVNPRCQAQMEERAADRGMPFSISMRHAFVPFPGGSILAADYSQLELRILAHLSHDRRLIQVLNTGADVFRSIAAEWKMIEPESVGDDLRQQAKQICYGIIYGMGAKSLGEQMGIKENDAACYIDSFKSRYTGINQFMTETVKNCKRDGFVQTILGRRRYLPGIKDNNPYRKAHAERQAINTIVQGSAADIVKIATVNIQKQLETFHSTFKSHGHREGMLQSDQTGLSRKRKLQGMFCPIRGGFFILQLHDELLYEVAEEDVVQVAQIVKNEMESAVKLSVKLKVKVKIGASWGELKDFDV
Observed: enzyme activity
Mode: inhibitor
Concentration: 77 µM
Reference: untreated
SMILES | remaining activity [%]
Nc1ccc(N2C(=O)c3ccccc3C2=O)c(Cl)c1 | 85.1
O=C1C(Cl)=C(N2C(=O)CCC2=O)C(=O)c2ccccc21 | 99.5
N#C[C@@H]1C[C@@H]2C[C@@H]2N1C(=O)[C@@H](N)C12CC3CC(CC(O)(C3)C1)C2 | 94.6
C[C@H]1[C@H](OC(=O)CCC(=O)O)O[C@@H]2O[C@@]3(C)CC[C@H]4[C@H](C)CC[C@@H]1[C@@]24OO3 | 101
COc1cc(/C=C/C(=O)N2CCN(CC(=O)N3CCCC3)CC2)cc(OC)c1OC | 104
CNCc1ccc(C)c(NC(=O)c2ccc(Nc3nc(-c4ccccc4)c4ccccc4n3)cc2)c1 | 97.1
Cc1cccc(Nc2nc(-c3ccncc3)cs2)c1 | 103
C1COC(NC(C2CC2)C2CC2)=N1 | 97.2
CC(=O)N1CCN(c2ccc(OC[C@@H]3CO[C@@](Cn4ccnc4)(c4ccc(Cl)cc4Cl)O3)cc2)CC1 | 152

Study 3
Compound: O=C(c1ccc(F)cc1)N1CC(COc2ccc(Br)cc2)(C(=O)O)C1
Observed: cell-free assay
Concentration: 10 µM
target | inhibition
HTR6 (Homo sapiens, UniProt P50406) | -2.64%
ADRB1 (Homo sapiens, UniProt P08588) | -6.66%
ADRA2B (Homo sapiens, UniProt P18089) | 12.1%
SIGMAR1 (Homo sapiens, UniProt Q99720) | 20.3%
HTR7 (Homo sapiens, UniProt P34969) | -12%
ADRA2C (Homo sapiens, UniProt P18825) | 11.3%

Study 4
Target: Megakaryocyte-associated tyrosine-protein kinase (MATK, Homo sapiens, UniProt P42679)
Observed: enzyme activity
Mode: inhibitor
Concentration: 0.5 µM
Reference: control
Construct (P42679 1-507): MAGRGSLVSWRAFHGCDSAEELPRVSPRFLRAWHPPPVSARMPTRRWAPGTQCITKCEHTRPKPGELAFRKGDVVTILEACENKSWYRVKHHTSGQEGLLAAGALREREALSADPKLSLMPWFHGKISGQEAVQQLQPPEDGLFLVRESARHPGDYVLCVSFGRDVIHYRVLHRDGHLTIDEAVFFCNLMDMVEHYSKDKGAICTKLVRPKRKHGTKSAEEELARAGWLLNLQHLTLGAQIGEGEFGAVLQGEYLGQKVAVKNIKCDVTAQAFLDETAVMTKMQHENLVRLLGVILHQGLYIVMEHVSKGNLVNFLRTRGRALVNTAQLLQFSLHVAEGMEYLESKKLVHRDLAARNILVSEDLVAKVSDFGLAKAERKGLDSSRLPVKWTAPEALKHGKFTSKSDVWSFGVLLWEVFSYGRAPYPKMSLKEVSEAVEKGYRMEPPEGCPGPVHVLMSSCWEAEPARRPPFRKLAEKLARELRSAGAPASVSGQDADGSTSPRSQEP
SMILES | remaining activity
COc1ccc(CNC(=O)Nc2ncc([N+](=O)[O-])s2)cc1 | 96.6%
CCOC(=O)c1c(C)[nH]c(/C=C2\C(=O)Nc3ccccc32)c1C | 101%
Cc1cccc(-c2[nH]c(C(C)(C)C)nc2-c2ccc3c(c2)OCO3)n1 | 100%
Oc1ccc(-c2nc(-c3ccncc3)c(-c3ccc(F)cc3)[nH]2)cc1 | 90.3%
CN(C)c1ccc(C=C2C(=O)Nc3ccccc32)cc1 | 95.3%
Cc1nc(-c2ccccc2)c(-c2ccncc2)o1 | 90.3%
Nc1ccc2ncnc(NCCc3ccc(Oc4ccccc4)cc3)c2c1 | 89.6%
O=S(=O)(c1cccc2cnccc12)N1CCCNCC1 | 99.6%
COc1ccc(C(=O)Nc2sc3c(c2C(N)=O)CCCC3)cc1OC | 92.7%
O=C(CCCc1ccc(-c2ccccc2F)cc1)Nc1ccc(O)cc1 | 92.2%
C#Cc1cccc(Nc2ncnc3cc(OCCOC)c(OCCOC)cc23)c1 | 77.2%
Nc1ncnc2n[nH]c(Nc3ccc(F)cc3)c12 | 95.6%
O=c1c2ccccc2[nH]c(=S)n1CCN1CCC(=C(c2ccc(F)cc2)c2ccc(F)cc2)CC1 | 93%
Cc1ccc(NC(=O)c2ccc(CN3CCN(C)CC3)cc2)cc1Nc1nc(-c2cccnc2)cs1 | 85.9%
O=C(Nc1cccc(Nc2cc(Nc3cccc(C(F)(F)F)c3)ncn2)c1)C1CC1 | 96.1%

A few entries again (study 4):
SMILES | remaining activity
COc1ccc(CNC(=O)Nc2ncc([N+](=O)[O-])s2)cc1 | 96.6%
CCOC(=O)c1c(C)[nH]c(/C=C2\C(=O)Nc3ccccc32)c1C | 101%
Cc1cccc(-c2[nH]c(C(C)(C)C)nc2-c2ccc3c(c2)OCO3)n1 | 100%
Oc1ccc(-c2nc(-c3ccncc3)c(-c3ccc(F)cc3)[nH]2)cc1 | 90.3%
